Published values collected from several papers.
Compare with care: the assays were run in different laboratories. Several values in a cell are separate wells, animals, samples, runs or records. Numbers after ± are the reported error.
ABO G235S/G268A/L266M/R176G: Histo-blood group ABO system transferase (ABO, Homo sapiens, UniProt P16442, G235S/G268A/L266M/R176G)
ALB: Albumin (ALB, Homo sapiens, UniProt P02768)
ESR2: Estrogen receptor beta (ESR2, Homo sapiens, UniProt Q92731)
T1: DNA aptamer, 5' T15 spacer; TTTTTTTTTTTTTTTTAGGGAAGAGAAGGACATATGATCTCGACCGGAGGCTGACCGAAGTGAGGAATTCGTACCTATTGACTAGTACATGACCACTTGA

SMILES	target	test	test system	setting	scale	endpoint	value
C[C@]12CC[C@@H]3c4ccc(O)cc4C(=NOCC(=O)O)C[C@H]3[C@@H]1CC[C@@H]2O	T1, DNA aptamer, 5' T15 spacer	bead-ELAA	–	NaCl 100 mM	–	Kd	0.00912 µM
N[C@@H](Cc1ccc(O)c(I)c1)C(=O)O	Iodotyrosine deiodinase (IYD, Thermotoga neapolitana, UniProt B9K712, M41A/Y112A)	binding, FMN fluorescence quenching	–	25 °C	baseline: wild type	affinity increase, M41A/Y112A vs wild type	50%
CCCCOc1ccc(C(=O)OCCN2CC=CCC2)cc1	CHRM1 (Homo sapiens, UniProt P11229)	recovery of [3H]NMS binding after washing	membranes	100 µM	–	dissociation half-time	0.4 ± 0.1 h
CSCC[C@H](NC(=O)[C@H](Cc1c[nH]c2ccccc12)NC(=O)[C@@H](NC(=O)[C@@H](NC(=O)[C@@H](NC(=O)[C@H](C)NC(=O)[C@@H](NC(=O)[C@H](C)NC(=O)[C@H](CCCCN)NC(=O)[C@H](CCCCN)NC(=O)[C@@H](NC(=O)[C@H](CC(N)=O)NC(=O)[C@H](CCC(=O)O)NC(=O)[C@@H](N)CCSC)C(C)C)[C@@H](C)O)[C@@H](C)O)[C@@H](C)O)[C@@H](C)O)C(=O)N[C@H](C(=O)N1CCC[C@H]1C(=O)N[C@H](C(=O)N[C@@H](C)C(=O)N[C@@H](C)C(=O)O)[C@@H](C)O)C(C)C	Recombining binding protein suppressor of hairless (Rbpj, Mus musculus, UniProt P31266)	isothermal titration calorimetry	–	pH 6.5, 25 °C	–	ΔH°	-14.2 ± 0.3 kcal/mol
COc1cc(-c2ccc(/N=N/c3ccc4c(S(=O)(=O)O)cc(S(=O)(=O)O)c(N)c4c3O)c(OC)c2)ccc1/N=N/c1ccc2c(S(=O)(=O)O)cc(S(=O)(=O)O)c(N)c2c1O	Neutrophil elastase (ELANE, Homo sapiens, UniProt P08246)	enzyme activity, inhibitor, chromogenic substrate hydrolysis	–	pH 7.4, 37 °C, 100 mM NaCl, added: substrate S-1384	–	Hill slope	1.9 ± 0.4
COc1cc2c(c(OC)c1)CN(c1cccc(-c3nc4ccc(N5CCN(C)CC5)cc4[nH]3)c1)CC2	Nuclear receptor coactivator 4, residues 383-522 (NCOA4, Homo sapiens, UniProt Q13772)	SPR	–	concentration not given	–	binding	no binding
CN1CCN(CC(=O)N2N=C3/C(=C/c4ccccc4)CCCC3C2c2ccccc2)CC1 (mixture of isomers)	ALOX15 (Homo sapiens, UniProt P16050)	activator	–	10 µM, added: arachidonic acid 100 µM	baseline: no activator	initial rate increase	30%
CC(=O)[C@]12NC(C)(C)C[C@@]1(C)C(=O)C1=C2c2c(c3c4n2C(C)(C)CC2=C4[C@@]4(CC(C)(C)N[C@@](C)(C4)C2=O)CC3(C)C)C(=O)C(C)(C)N1 (racemic)	OPRM1 (Homo sapiens, UniProt P35372)	cAMP level, agonist, LANCE Ultra cAMP	CHO cells	concentration not given	–	activity	inactive
CC1=C(/C=C/C=C\C=C\C(C)=C\C=O)C(C)(C)CCC1	Rhodopsin (RHO, Homo sapiens, UniProt P08100, P23H)	pharmacological chaperone, immunostaining, nonpermeabilized cells	661W	2.5 µM, 16 h	baseline: untreated cells	cell surface expression	~6 fold
C=CCCCCCCO[C@@H]1O[C@H](CO)[C@@H](O[C@@H]2O[C@H](CO)[C@H](O)[C@H](O)[C@H]2O[C@@H]2O[C@@H](C)[C@@H](O)[C@@H](O)[C@@H]2O)[C@H](O)[C@H]1O	ABO G235S/G268A/L266M/R176G	methyl-TROSY NMR titration lineshape analysis	–	apo enzyme	–	kon	1.1e+06 M⁻¹ s⁻¹
Cc1ncc(C[n+]2cccc(CCO)c2C)c(N)n1	nicotinamide riboside transporter PnuT (Shewanella woodyi, UniProt B1KPL9)	binding, isothermal titration calorimetry	purified detergent-solubilized protein	25 °C	–	ΔS	41 ± 43 J/mol/K
[3H]C([3H])([3H])c1cnccc1CN1C[C@@H](c2cc(F)c(F)c(F)c2)CC1=O	SV2A (Homo sapiens, UniProt Q7L0J3)	radioligand binding, saturation binding	frontal cortex homogenate	–	baseline: Alzheimer disease over control	Bmax ratio	~1.12 fold
O=Cc1ccc(-c2cn([C@@H]3O[C@H](COP(=O)(O)OP(=O)(O)O[C@H]4O[C@H](CO)[C@H](O)[C@H](O)[C@H]4O)[C@@H](O)[C@H]3O)c(=O)[nH]c2=O)s1	ABO (Homo sapiens, UniProt P16442, G268A/L266G)	galactosyltransferase activity, substrate, HPLC	–	acceptor	baseline: natural donor	Km	~10 fold
OC(Cc1cc(-c2ccc(C(O)C(F)(F)F)s2)sc1-c1ccc(-c2sc(-c3ccc(C(O)C(F)(F)F)s3)cc2CC(O)C(F)(F)F)s1)C(F)(F)F (centres unmarked)	Microtubule-associated protein tau, 0N4R isoform, aggregated (MAPT, Homo sapiens, UniProt P10636)	binding, fluorescence	40% sucrose tau fraction	–	baseline: 40% over 20% fraction	Kd ratio	9
CCCNCC(=O)O	ALB	circular dichroism	–	0.6 mM	–	α-helix content	44.9%
CNc1nc(C#Cc2ccc(Cl)s2)nc2c1ncn2[C@@H]1O[C@H](CO)[C@@H](O)[C@H]1O	ADORA3 (Homo sapiens, UniProt P0DMS8)	kinetic radioligand binding	–	no GTP, added: [3H]PSB-11	–	residence time	125 ± 14 min
CCC(=O)N(C)c1ccc(Cl)c(Cl)c1	constitutive androstane receptor CAR3 (human)	activator, reporter gene	–	0.32 to 100 µM	–	CAR3 activation	no effect
C[C@H](CCC(=O)N[C@@H](CCC(=O)Nc1ccc(F)nc1)C(=O)O)[C@H]1CC[C@H]2[C@@H]3[C@H](O)C[C@@H]4C[C@H](O)CC[C@]4(C)[C@H]3CC[C@]12C	SLC10A2 (Homo sapiens, UniProt Q12908)	transport, substrate, LC-MS/MS	ASBT-MDCK cells	–	–	Kt	11.7 µM
Nc1c2ncn3c2nc[n+]1[C@@H]1O[C@H](COP(=O)(O)OP(=O)([O-])OC[C@H]2O[C@@H]3[C@@H](O)[C@@H]2O)[C@@H](O)[C@H]1O	cADPR receptor, sea urchin	Ca2+ release	sea urchin egg homogenate	concentration not given	–	activity	inactive
CCC(=C(c1ccc(O)cc1)c1ccc(OCCN(C)CCOCCOCCOCCOCCOCCN(C)CCOc2ccc(C(=C(CC)c3ccccc3)c3ccc(O)cc3)cc2)cc1)c1ccccc1 (mixture of isomers)	ESR2	radioligand competition binding	–	concentration not given, Z-Z/Z isomer form, added: [3H]estradiol tracer	baseline: estradiol	relative binding affinity	12.8 ± 2%
C=CCC(=N)NCCC[C@H](N)C(=O)O	Nitric oxide synthase 1 (Mus musculus, UniProt Q9Z0J4)	NMDA-evoked cGMP accumulation, inhibitor	adult mouse hippocampal slices	fixed for fitting	–	Hill slope	1

SMILES	target	test	test system	setting	scale	endpoint	value
[C-]#[O+].[C-]#[O+].[C-]#[O+].[C-]#[O+].[C-]#[O+].[C-]#[O+].[Cl-].[Cl-].[Re+].[Re+].c1cnc(-c2ncccn2)nc1	ALB	tryptophan fluorescence quenching	–	concentration not given	–	number of binding sites	1.48
CC(=O)N[C@@H](COP(=O)(O)O)C(=O)N1CCC[C@H]1C(=O)N[C@H](C(=O)N[C@@H](Cc1ccccc1)C(=O)O)[C@@H](C)O	Breast cancer type 1 susceptibility protein, tandem BRCT domains (BRCA1, Homo sapiens, UniProt P38398)	binding, isothermal titration calorimetry	–	concentration not given	–	heat capacity change	-350 ± 69 cal/(mol·K)
CCCc1c(-c2ccc(O)cc2)nn(-c2ccc(O)cc2)c1-c1ccc(OCCN2CCCCC2)cc1	ESR2	competitive radioligand binding	–	concentration not given	baseline: estradiol, higher = stronger binding	relative binding affinity	0.54 ± 0.13
O=P(O)(O)O[C@@H]1[C@@H](O)[C@H](O)[C@H](O)[C@H](O)[C@H]1OP(=O)(O)O	Inositol 1,4,5-trisphosphate-gated calcium channel ITPR1, IP3-binding core (Itpr1, Rattus norvegicus, UniProt P29994, R568Q)	binding, 3H-IP3 competition	–	IP3-binding core, unit not given	baseline: R568Q over wild type	ΔpKd	0.4 ± 0.14
C[C@@H]1O[C@@H](O[C@@H]2C(=O)c3c(O)cc(O)cc3O[C@@H]2c2ccc(O)cc2)[C@H](O)[C@H](O)[C@H]1O	PTPN1 (Homo sapiens, UniProt P18031)	Lineweaver-Burk and Dixon plots	–	–	–	Ki (enzyme-substrate complex)	9.55 µM
C=C1C(=O)O[C@@H]2[C@H]3C(CO)=CC(=O)C3=C(C)C[C@H](O)[C@@H]12	MAL12 (Saccharomyces cerevisiae S288c, UniProt P53341)	synchronous fluorescence, Δλ 60 nm	–	up to 65.22 µM, 298 K, red-shifted from 288 nm	–	Trp emission peak wavelength	290 nm
CCc1nc2cc3ccccc3cc2cc1C(=O)N1CCC[C@H]1C(=O)N[C@@H](C/C=C\C[C@H](NC(=O)[C@@H]1CCCN1C(=O)c1cc2cc3ccccc3cc2nc1CC)C(=O)N[C@@H](CCCCN)C(=O)NCCCN)C(=O)N[C@@H](CCCCN)C(=O)NCCCN	(CCUG)10 RNA	SPR	–	–	–	residence time	12.4 min
CC(=O)N[C@H]1[C@@H](OP(=O)(O)OP(=O)(O)OC[C@H]2O[C@@H](n3ccc(=O)[nH]c3=O)[C@H](O)[C@@H]2O)O[C@H](CO)[C@H](O)[C@@H]1O	ABO G235S/G268A/L266M/R176G	binding, NMR	–	–	–	koff	493 s⁻¹
O=C(CSC(=S)N1CCCCCC1)Nc1cccc2c1C(=O)c1ccccc1C2=O	ROR1 (Homo sapiens, UniProt Q01973)	RTK phosphorylation antibody array	A549	concentration not given	baseline: control	phosphorylation decrease	2.8 fold
CCC(=O)N1CC=C(c2cc3c(Nc4cc5ncsc5cc4F)ncnc3s2)CC1	RIPK1 (Homo sapiens, UniProt Q13546)	enzyme activity	–	1 µM	baseline: untreated	remaining activity	106 ± 6%
CCC(=C(c1ccc(O)cc1)c1ccc(OCCN(C)CCOCCOCCOCCOCCOCCOCCOCCOCCOCCN(C)CCOc2ccc(C(=C(CC)c3ccccc3)c3ccc(O)cc3)cc2)cc1)c1ccccc1 (mixture of isomers)	ESR2	radioligand competition binding	–	concentration not given, Z-E/E isomer form, added: [3H]estradiol tracer	baseline: estradiol	relative binding affinity	7.85 ± 2%
O=C(OCc1cccc(O)c1O)c1ccc(O)c(CO)c1	XDH (Homo sapiens, UniProt P47989)	superoxide production, lucigenin chemiluminescence	–	–	–	antioxidant threshold concentration	> 50 µM
CC(=C(c1ccc(Cl)cc1)c1ccc(OCCN2CCCCC2)cc1)c1ccc(Cl)cc1	Estrogen receptor (ESR1, Homo sapiens, UniProt P03372)	reporter gene, agonist, yeast estrogen screen	–	1 µM	baseline: DMSO	fold activation	1.09 ± 0.2 fold
N=C(N)NCCC[C@H](NC(=O)[C@H](CC(=O)O)NC(=O)[C@@H]1CSCC(=O)NCC(=O)N[C@@H](Cc2c[nH]cn2)C(=O)N[C@H](Cc2ccccc2)C(=O)N[C@@H](CCCNC(=N)N)C(=O)N[C@H](Cc2c[nH]c3ccccc23)C(=O)N1)C(=O)N[C@@H](Cc1ccccc1)C(=O)NCC(N)=O	MC3R (Homo sapiens, UniProt P41968)	cAMP accumulation, agonist	HEK293 expressing MC3R	10 µM	baseline: MT-II	activation	30%
CC(=O)N(CC(=O)N(C)[C@@H](C)C(=O)N(Cc1c[nH]c2cc(Cl)ccc12)[C@@H](C)C(=O)N(C)[C@@H](C)C(=O)N(CCC(C)(C)C)[C@@H](C)C(=O)N1CCNCC1)Cc1ccccc1	E3 ubiquitin-protein ligase Mdm2, N-terminal domain 17-125 (MDM2, Homo sapiens, UniProt Q00987)	binding, SPR	PBS with Tween	10 °C, immobilised peptoid	–	kon	537000 M⁻¹ s⁻¹
C[N+](C)(C)CCCCOc1ccc2cc(CN)ccc2c1	Primary amine oxidase, liver isozyme (Bos taurus, UniProt Q29437)	substrate, fluorescence	–	pH 7.2, 30 °C	–	Km	0.064 ± 0.015 µM
Cc1cc(N2CCC(CO)(C3CC3)C2=O)cc(C(=O)NCc2cc(F)cc(-c3cnn(C)c3)c2)n1 (centres unmarked)	Bifunctional glutamate/proline--tRNA ligase, prolyl-tRNA synthetase domain (EPRS1, Homo sapiens, UniProt P07814)	thermal shift	–	–	–	melting temperature	75.2 °C and 63.7 °C and 75.6 °C
O=C1c2ccc(O)cc2O[C@@H](c2ccc(O)cc2)[C@@H]1[C@@H]1C(=O)c2ccc(O)cc2O[C@H]1c1ccc(O)cc1	PRXC1A (Armoracia rusticana, UniProt P00433)	oxidation, substrate	–	–	–	Vmax	144 ± 4.1 µmol/min/mg
O=C(O[C@H](CO)C(F)(F)F)N1C[C@@H]2[C@H](C1)[C@H]2c1ccn(-c2ccc([18F])nc2)n1	Monoglyceride lipase (Rattus norvegicus, UniProt Q8R431)	PET	Sprague-Dawley rats, whole brain	dose not given, added: PF-06795071 3 mg/kg iv	baseline: baseline	reduction of brain uptake AUC	45%
CCNC(=O)[C@H]1O[C@@H](n2cnc3c(NCCCCCCCCCCCNS(=O)(=O)c4cccc5c(N(C)C)cccc45)ncnc32)[C@H](O)[C@@H]1O	ADORA1 (Homo sapiens, UniProt P30542)	CRE reporter gene	CHO-A1	Gi response, added: forskolin	–	log Kd minus log IC50	2.25

Repeated from above:
SMILES	target	test	test system	setting	scale	endpoint	value
CC(=O)N[C@@H](COP(=O)(O)O)C(=O)N1CCC[C@H]1C(=O)N[C@H](C(=O)N[C@@H](Cc1ccccc1)C(=O)O)[C@@H](C)O	Breast cancer type 1 susceptibility protein, tandem BRCT domains (BRCA1, Homo sapiens, UniProt P38398)	binding, isothermal titration calorimetry	–	concentration not given	–	heat capacity change	-350 ± 69 cal/(mol·K)
CCCc1c(-c2ccc(O)cc2)nn(-c2ccc(O)cc2)c1-c1ccc(OCCN2CCCCC2)cc1	ESR2	competitive radioligand binding	–	concentration not given	baseline: estradiol, higher = stronger binding	relative binding affinity	0.54 ± 0.13
O=P(O)(O)O[C@@H]1[C@@H](O)[C@H](O)[C@H](O)[C@H](O)[C@H]1OP(=O)(O)O	Inositol 1,4,5-trisphosphate-gated calcium channel ITPR1, IP3-binding core (Itpr1, Rattus norvegicus, UniProt P29994, R568Q)	binding, 3H-IP3 competition	–	IP3-binding core, unit not given	baseline: R568Q over wild type	ΔpKd	0.4 ± 0.14
C[C@@H]1O[C@@H](O[C@@H]2C(=O)c3c(O)cc(O)cc3O[C@@H]2c2ccc(O)cc2)[C@H](O)[C@H](O)[C@H]1O	PTPN1 (Homo sapiens, UniProt P18031)	Lineweaver-Burk and Dixon plots	–	–	–	Ki (enzyme-substrate complex)	9.55 µM
